Published values collected from several papers.
Compare with care: the assays were run in different laboratories. ± gives the spread as reported.
Tripartite terminase subunit 3 C-terminal nuclease domain: Tripartite terminase subunit 3, C-terminal nuclease domain (Human betaherpesvirus 5, UniProt P16732)

`COc1cc(Nc2ncc(F)c(Nc3ccc4c(n3)NC(=O)C(C)(C)O4)n2)cc(OC)c1OC` gave an inhibition of 92% (cAMP-dependent protein kinase catalytic subunit beta (PRKACB, Homo sapiens, UniProt P22694); KINOMEscan; 10 µM, PKAC-beta).
`O=c1[nH]c2cc(-c3ccc(Cl)cc3)sc2c(=O)n1O` has an inhibition of 80% (Tripartite terminase subunit 3 C-terminal nuclease domain; endonuclease activity, ELISA; 20 µM, added: dsDNA).
With `OB(O)c1csc2ccccc12` the inhibition was 94.7% (Uncharacterized hydrolase SAUSA300_2518 (Staphylococcus aureus, UniProt Q2FDS6); enzyme activity, inhibitor; 50 µM).
`O=C(Nc1cccnn1)N1CCC(=Cc2cccc(Oc3ccc(C(F)(F)F)cn3)c2)CC1` has an inhibition of 12% (Prostacyclin receptor (PTGIR, Homo sapiens, UniProt P43119); radioligand binding, inhibitor; 10 µM, human, added: [3H]iloprost).
For `Nc1ccncc1`, the inhibition was -2% (Voltage-gated potassium channel, KQT; KCNQ2(Kv7.2)/KCNQ3(Kv7.3) (KCNQ3/KCNQ2, Homo sapiens, UniProt O43525+O43526); ion current, antagonist, automated patch clamp; HEK293; 10 µM).
`CN1CCN(c2cc(-c3ccncc3)c(-c3ccc4ccccc4c3)nn2)CC1` has an inhibition of -15.7% (Neuromedin-K receptor (TACR3, Homo sapiens, UniProt P29371); antagonist, FLIPR; 10 µM).
For `O=C(O)CCCc1ccc(N(CCCl)CCCl)cc1`, the maximum inhibition was 2.21% (human coronavirus OC43; virus-induced cell killing; MRC-5; screen).
`COc1cc(/C=C/C(=O)CC(=O)/C=C/c2ccc(O)c(OC)c2)ccc1O` gave an inhibition of 15% (Amyloid-beta precursor protein (APP, Homo sapiens, UniProt P05067); Aβ42 self-aggregation, inhibitor, thioflavin T fluorescence; 1 µM).
`CC(=O)NC1C[C@](OCC2O[C@@H](Oc3ccc([N+](=O)[O-])cc3)C(O)C(O)[C@H]2O)(C(=O)O)OC([C@H](O)[C@H](O)CO)[C@@H]1NC(C)=O` (stereo partly shown) has an inhibition of 4.2 ± 0.8% (Sialidase A (nanA, Streptococcus pneumoniae, UniProt P62575); 8 µM, pH 6).
For `COc1ccc(N2C(=O)N(c3c(C)cccc3Cl)Cc3cnc(Nc4ccc(C5CCN(C)CC5)cc4OC)nc32)nc1`, the inhibition was 94% (Tyrosine-protein kinase Fgr (FGR, Homo sapiens, UniProt P09769); kinase activity; 0.5 µM).
The inhibition of `O=C(Nc1ccc2c(c1)B(O)OC2)c1ccc(OCc2ccccc2)cc1` is reported as 10 ± 7% (Genome polyprotein, NS2B-NS3 protease (dengue virus type 2, UniProt P29990); enzyme activity, FRET; dengue virus serotype 2; 50 µM, added: substrate 50 µM).
`O=C(Nc1cnccc1Cl)N1CCN(Cc2ccc3c(c2)OC(F)(F)O3)CC1` has an inhibition of 11% (Retinoic acid receptor RXR-alpha (RXRA, Homo sapiens, UniProt P19793); radioligand binding, inhibitor; 50 µM, human, added: [3H]9-cis-retinoic acid).
`COc1cccc(COc2cccc(C(=O)Nc3ccc4c(c3)B(O)OC4)c2)c1` has an inhibition of 14 ± 8% (Genome polyprotein, NS2B-NS3 protease (dengue virus type 2, UniProt P29990); enzyme activity, FRET; dengue virus serotype 2; 50 µM, added: substrate 50 µM).
`O=C1CN=C(c2ccccc2)c2cc(/N=N/c3ccc(S(=O)(=O)O)cc3)ccc2N1` gave an inhibition of 75 ± 3% (5-hydroxytryptamine receptor 3A (HTR3A, Homo sapiens, UniProt P46098); 5-HT-induced current, inhibitor, whole-cell patch clamp; CHO cells; 50 µM, UV light, holding -30 mV, added: 5-HT).
The inhibition of `Cc1cccc(COc2cccc(C(=O)Nc3ccc4c(c3)B(O)OC4)c2)c1` is reported as 19 ± 9% (Genome polyprotein, NS2B-NS3 protease (dengue virus type 2, UniProt P29990); enzyme activity, FRET; dengue virus serotype 2; 50 µM, added: substrate 50 µM).
`O[C@H]1[C@H](O)[C@@H](O)CN2CC[C@H](O)[C@H]12` gave a maximum inhibition of 27.7% (human coronavirus OC43; virus-induced cell killing; MRC-5; screen).
`O=c1[nH]c2scc(-c3ccc(Cl)cc3)c2c(=O)n1O` gave an inhibition of 100% (Tripartite terminase subunit 3 C-terminal nuclease domain; endonuclease activity, ELISA; 20 µM, added: dsDNA).
`Cn1cc(-c2cc(F)cc(N3CCn4c(cc5c4CCCC5)C3=O)c2CO)cc(Nc2ccc(N3CCN(C4COC4)CC3)cn2)c1=O` gave an inhibition of 14% (Mitogen-activated protein kinase 14 (MAPK14, Homo sapiens, UniProt Q16539); kinase activity, inhibitor, SelectScreen; 0.1 µM, added: ATP at apparent Km).
`CN(C)c1ccc(-c2nc(-c3cccs3)c(-c3cccs3)[nH]2)cc1` has a cytotoxicity efficacy of 0% (Vero-E6; CellTiter-Glo ATP; concentration not given, 72 h, first round 5-point; reference: DMSO 0%, hyamine -100%, more negative, more toxic).
`Cc1onc(-c2ccc(F)cc2)c1C(=O)Nc1ccc2c(c1)B(O)OC2` gave an inhibition of ≤ 10% (Genome polyprotein, NS2B-NS3 protease (West Nile virus, UniProt P06935); enzyme activity, FRET; 50 µM, added: substrate 50 µM).
`COc1cccc(CNC(=O)C2CCN(Cc3cc4ccccc4n3Cc3ccccc3)CC2)c1OC` has a cytotoxicity efficacy of -10.3% (Vero-E6; CellTiter-Glo ATP; concentration not given, 72 h, second round 5-point; reference: DMSO 0%, hyamine -100%, more negative, more toxic).
The inhibition of `CN(C(=O)n1cnc(-c2ccc[n+]([O-])c2)c1)C1CCCCC1` is reported as 0% (Melanocortin receptor 3 (MC3R, Homo sapiens, UniProt P41968); radioligand binding; 10 µM).
